Assay results collected from several papers.
Every numbered part comes from another study and shows a few of its results, in no order. Substitutions count along the parent as printed.

Set 1
Target: CCNA2, cyclin fold, Cln2 fusion (human)
Method: yeast growth competition, sequencing
Matrix: yeast
Notes: weak parent motif
Relative to: not given
Reading: higher = stronger binding
Parent: HIRA docking peptide (human); SLSKRKLELEVET
Variant	normalised enrichment score
R5A L7A	0.164
L7A	0.108
R5K L9F	2.8
S1A	1.26
T13A	1.2
E12A	0.298
K6A	0.322
L9F	4
R5A	-0.569
E10A	-0.0652

Set 2
Target: CEP164, C-terminal peptide (human)
Method: DHFR complementation, deep sequencing
Matrix: yeast
Notes: single substitutions, model-inferred values
Relative to: wild type
Reading: higher = weaker binding
Parent: PDZK1, PDZ domain 2 (human); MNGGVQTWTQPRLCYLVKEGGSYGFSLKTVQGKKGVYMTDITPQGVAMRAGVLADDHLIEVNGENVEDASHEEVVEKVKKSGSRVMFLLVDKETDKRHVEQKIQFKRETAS; partner HNRVKVYRF
Variant	binding free energy change
N65W	0.0358 kcal/mol
S83M	-0.00672 kcal/mol
A47V	0.527 kcal/mol
K96L	0.0461 kcal/mol
E64P	0.692 kcal/mol
M86Q	-0.0906 kcal/mol
H98Y	-0.0675 kcal/mol
I103K	-0.11 kcal/mol
M1F	-0.00212 kcal/mol
E67S	0.274 kcal/mol
G3I	0.00307 kcal/mol
I59P	0.674 kcal/mol
V85I	0.221 kcal/mol
V52F	1.32 kcal/mol
R107H	-0.077 kcal/mol
S111Y	-0.0138 kcal/mol
A69S	-0.0311 kcal/mol
E76F	0.234 kcal/mol

Set 3
Target: Interferon regulatory factor 5, full length, phosphomimetic (IRF5, Homo sapiens, UniProt Q13568-2, residues 1-514, K96S/S451D/S453D/S456D/S462D)
Method: protein-binding microarray
Molecule type: double-stranded DNA, one strand shown
Matrix: in vitro
Concentration: 250 nM
Notes: 60-bp whole probe
Together with: salmon DNA 0.4 mg/ml
Relative to: random background probes
Reading: higher = stronger binding
Shared flanks, not repeated: GCCTAGCAC … GTCTTGATTCGCTTGACGCTGCTG
Oligonucleotide	log fluorescence
TTAGGTCTCTTACTGCTTTAGTGCTAG	-0.0341 z-score
CTCTGGGGCTCCAGGGAGAAGTGCTAG	-0.814 z-score
ACTGTGTTTTGGATGTCAGAGTGCTAG	0.377 z-score
TTAGGTTTCCTTATCCTTAAGTGCTAG	1.16 z-score
GACGGTTTCGGTTACGGGACGTGCTAG	9.4 z-score
TTAGGTTTCGACTATCGGTGAGTGCTA	8.69 z-score
TCAAGAATGCCTTTAATACTGTGCTAG	-0.0543 z-score
TTTGATATCAGTCTCGATTAGTGCTAG	3.08 z-score
GACTGTTTCGGGACTGGGGACGTGCTA	4.82 z-score
TTAGGTATCCTACTCCTTTAGTGCTAG	-0.169 z-score
TTAGGACTGGGTCTCGCTTAGTGCTAG	-0.641 z-score
TCACATGTGCCTTTATAACTGTGCTAG	0.0811 z-score
TTTGGTTTCGGGTTTCGGTTAGTGCTA	11 z-score
CTGGGCAGGATGAGTTCCAGGTGCTAG	-0.446 z-score
AAGGATTTCAGTTTCTCTTTGTGCTAG	3.9 z-score
CTCTGCTTCTGTATGGGCATGTGCTAG	-0.0166 z-score
GAGGATATCGGGTATCGAGACGTGCTA	1.49 z-score
GACGGTCTCCGTATCCTGACGTGCTAG	-0.153 z-score
GTAGGTATCGGGTTTCGGTTAGTGCTA	8.17 z-score

Set 4
Target: ABI1, truncated, D143A, DHFR fusion (Arabidopsis thaliana)
Method: DHFR PCA, deep sequencing
Matrix: yeast
Notes: methotrexate growth selection, single substitutions
Together with: (+)-ABA 17 µM
Relative to: wild-type fitted maximum
Reading: higher = stronger binding
Parent: PYL1, truncated, DHFR fusion (Arabidopsis thaliana); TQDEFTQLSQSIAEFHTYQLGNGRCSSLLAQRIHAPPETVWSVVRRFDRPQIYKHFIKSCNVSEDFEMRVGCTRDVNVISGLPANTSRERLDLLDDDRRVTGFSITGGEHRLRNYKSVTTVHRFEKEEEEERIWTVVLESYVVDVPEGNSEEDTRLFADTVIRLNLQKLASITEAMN
Variant	relative binding score
V70T	59.3%
S42I	21.3%
E139Q	83.7%
A35D	-7.82%
L29T	40.7%
A30E	70.1%
Q167D	62.6%
E64I	62.1%
W41Y	1.69%
T1Y	81%
L82M	72.4%
N177K	77.6%
R49H	72.7%
P146V	22.8%
V62R	11.7%
G108C	18.5%
I57V	81.4%
E89T	1.75%

Set 5
Target: NFE2L3, bZIP domain (human)
Method: DHFR protein complementation
Matrix: yeast
Notes: single substitutions, most at no-binding floor
Relative to: wild-type JUN-FOS pair
Reading: higher = stronger binding
Parent: JUN, bZIP domain (human); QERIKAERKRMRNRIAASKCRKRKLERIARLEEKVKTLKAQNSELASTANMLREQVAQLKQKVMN; partner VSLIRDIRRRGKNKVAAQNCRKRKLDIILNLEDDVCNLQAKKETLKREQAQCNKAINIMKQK
Variant	binding fitness
L45K	-1.55 natural log
K39Q	-1.39 natural log
K39N	-1.46 natural log
M51H	-1.54 natural log
R53M	-1.59 natural log
A49E	-1.52 natural log
S47V	-1.33 natural log
K39A	-1.57 natural log
V35K	-1.52 natural log
V56H	-1.49 natural log
A40T	-1.41 natural log
E32I	-1.5 natural log
T37S	-1.43 natural log
R30N	-1.46 natural log
E54A	-1.36 natural log
L45R	-1.54 natural log
K34M	-1.5 natural log
V35G	-1.49 natural log
K36L	-1.28 natural log
L38K	-1.53 natural log
R53K	-1.15 natural log
E44T	-1.47 natural log
L31N	-1.45 natural log
L52Q	-1.49 natural log

A few entries again (set 4):
Variant	relative binding score
A35D	-7.82%
L29T	40.7%
A30E	70.1%
Q167D	62.6%
E64I	62.1%
W41Y	1.69%
T1Y	81%
L82M	72.4%
N177K	77.6%
R49H	72.7%
P146V	22.8%
V62R	11.7%
